Published values pooled from the literature.
A part holds a random share of what one study measured. Substitutions count along the parent as printed.

Sample 1
Target: ABI1, truncated, D143A, DHFR fusion (Arabidopsis thaliana)
Technique: DHFR PCA, deep sequencing
Medium: yeast
Notes: methotrexate growth selection, single substitutions
Together with: (+)-ABA 0.0091 µM
Reference: wild-type fitted maximum
Direction: higher = stronger binding
Quantity: relative binding score
Starting sequence: PYL1, truncated, DHFR fusion (Arabidopsis thaliana); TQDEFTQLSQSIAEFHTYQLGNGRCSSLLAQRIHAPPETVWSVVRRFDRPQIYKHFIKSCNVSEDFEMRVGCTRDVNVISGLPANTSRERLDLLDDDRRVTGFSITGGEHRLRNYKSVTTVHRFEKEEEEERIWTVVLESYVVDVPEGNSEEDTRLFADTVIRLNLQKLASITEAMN; partner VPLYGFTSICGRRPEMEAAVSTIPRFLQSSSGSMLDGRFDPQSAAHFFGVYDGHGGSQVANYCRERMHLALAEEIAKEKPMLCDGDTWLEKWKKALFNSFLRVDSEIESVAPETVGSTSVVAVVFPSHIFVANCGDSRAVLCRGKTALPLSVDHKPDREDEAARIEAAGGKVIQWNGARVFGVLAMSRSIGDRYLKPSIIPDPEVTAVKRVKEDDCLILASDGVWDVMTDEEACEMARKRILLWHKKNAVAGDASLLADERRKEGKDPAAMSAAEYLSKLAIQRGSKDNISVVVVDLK
Substitution = N61S; result = 49.3%
Substitution = D144H; result = 0.57%
Substitution = N177E; result = 31%
Substitution = E125W; result = 2.45%
Substitution = D159L; result = -4.41%
Substitution = L138M; result = 7.03%

Sample 2
Target: CCNB3, cyclin fold, Cln2 fusion (human)
Technique: yeast growth competition, sequencing
Medium: yeast
Notes: weak parent motif
Reference: not given
Direction: higher = stronger binding
Quantity: normalised enrichment score
Starting sequence: RB1 docking peptide (human); PKPLKKLRFDIEG
Substitution = K2G; result = -0.405
Substitution = P3F; result = -0.306
Substitution = D10F; result = 0.0933
Substitution = I11Y; result = -0.15
Substitution = G13F; result = -0.0514

Sample 3
Target: RING finger protein unkempt homolog, zinc fingers 1-6, GST-SBP tag (UNK, Homo sapiens, UniProt Q9C0B0, residues 30-357)
Technique: RNA Bind-n-Seq
Molecule type: RNA
Medium: in vitro
Tested at: not given
Notes: RNA with constant flanks, human and mouse sites, ends assumed
Reference: input RNA pool
Direction: higher = stronger binding
Quantity: bound/input enrichment
Constant ends, left off below: GGGAGUUCUACAGUCCGACGAUC … CAACAGAGGAUUGAGCAUCA
Target sequence (chain): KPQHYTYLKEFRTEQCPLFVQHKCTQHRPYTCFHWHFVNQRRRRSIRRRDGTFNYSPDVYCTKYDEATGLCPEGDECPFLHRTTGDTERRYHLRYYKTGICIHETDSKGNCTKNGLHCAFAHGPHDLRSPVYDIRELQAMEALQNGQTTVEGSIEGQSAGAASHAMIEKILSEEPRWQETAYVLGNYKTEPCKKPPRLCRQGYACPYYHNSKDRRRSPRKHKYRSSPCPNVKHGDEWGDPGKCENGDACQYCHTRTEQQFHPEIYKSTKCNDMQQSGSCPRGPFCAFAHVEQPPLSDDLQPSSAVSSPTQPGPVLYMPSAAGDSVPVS
Sequence = CUGAGCCUGGUGGCUAAGGGUGGGCUCGGCCUCCUCUUCCCCUGUCCGAUGGAGGACAGUCGGAGGCUCUUUUCAAGUUGGUCAGCCCUGACUGAAGUGCUGAAACUGGGAAGGAGAUCC; result = 0.04 ratio
Sequence = CAGAUAGCAUCAUUAAGAUCAGUUUUAAGGGGUAUAGGGAGGGUGAGGGAAGUGGGGGGUGUUAGGUAAGGGUUGGGGGUAGAGGUUUUGGGAUGUCUUAGUUAGAAACCAGAUUAAUAG; result = 27.8 ratio
Sequence = CCAAUUGUGGAGCAGUACUUGAAGACAAAGAAAAAUUCUAAUAAUUUAAUCAUCAAGUACAUUAGCUGCCGCCUGCUGACACUCAUCAUUAUACUGUUAGCGUGUAUCUACCUGGGCUAU; result = 0.34 ratio
Sequence = GCCGUGCACGUGGUGGUGAGCGCUGUCCGAGAGCUGAACCGCAGCCAGGAGAUCGGUGUGAAGCCUCUGGCCUGUACAUCGGCCAACAUUUGGCCCCACGGGACCAGCCUCAUGAACUAC; result = 0.0516 ratio
Sequence = GACCAAAGUUUUUGAUCAUAUGUUUUGAGAUAAUUGUAUGAUCAAGUUGUAUAUUUAAGUCUUAGUGUUUGAAAUUGCAGUUAUAAUUGUUCAUAGGAUUGCUAUUUAAGAUGAUUUGAA; result = 2.22 ratio

Other studies, line by line
Substance = PhoQ, residues 284 288 289 292 302 303 GNNTDL; target = PhoP, residues 12 14 15 18 19 NNFVT (Escherichia coli, UniProt P23836); assay = Sort-seq, item: YFP reporter; system = E. coli; setting = PhoQ-PhoP variant library, together with: 10 µM Mg2+; how to read = reference: high Mg2+ state, higher = stronger signaling; quantity = fold induction; result = 1.81

Some of these lines once more (sample 3):
Sequence = CUGAGCCUGGUGGCUAAGGGUGGGCUCGGCCUCCUCUUCCCCUGUCCGAUGGAGGACAGUCGGAGGCUCUUUUCAAGUUGGUCAGCCCUGACUGAAGUGCUGAAACUGGGAAGGAGAUCC; result = 0.04 ratio
Sequence = CAGAUAGCAUCAUUAAGAUCAGUUUUAAGGGGUAUAGGGAGGGUGAGGGAAGUGGGGGGUGUUAGGUAAGGGUUGGGGGUAGAGGUUUUGGGAUGUCUUAGUUAGAAACCAGAUUAAUAG; result = 27.8 ratio
Sequence = CCAAUUGUGGAGCAGUACUUGAAGACAAAGAAAAAUUCUAAUAAUUUAAUCAUCAAGUACAUUAGCUGCCGCCUGCUGACACUCAUCAUUAUACUGUUAGCGUGUAUCUACCUGGGCUAU; result = 0.34 ratio
